# Published values gathered from unrelated publications.
# Protocols differ between the studies behind these lines. Values joined by “and” are separate records of one study, mostly repeats; a detail may differ. ± gives the spread as reported.
# uncharacterized protein: uncharacterized protein (Solanum lycopersicum, UniProt A0A3Q7EJP1)
# Inositol-tetrakisphosphate 1-kinase: Inositol-tetrakisphosphate 1-kinase (Homo sapiens, UniProt Q13572)
# UniProt Q13572, sequence (whole entry, looked up): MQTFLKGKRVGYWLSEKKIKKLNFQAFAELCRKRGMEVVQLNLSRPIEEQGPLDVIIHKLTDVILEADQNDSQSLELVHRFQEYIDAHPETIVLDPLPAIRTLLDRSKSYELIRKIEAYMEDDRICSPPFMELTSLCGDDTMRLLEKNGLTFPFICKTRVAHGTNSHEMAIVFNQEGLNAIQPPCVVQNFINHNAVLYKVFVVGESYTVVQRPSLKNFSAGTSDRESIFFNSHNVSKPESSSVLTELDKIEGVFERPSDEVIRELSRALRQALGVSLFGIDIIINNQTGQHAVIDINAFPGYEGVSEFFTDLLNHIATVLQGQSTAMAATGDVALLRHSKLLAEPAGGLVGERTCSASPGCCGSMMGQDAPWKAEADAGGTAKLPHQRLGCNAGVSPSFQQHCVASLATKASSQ
# USP20 ZnF-UBD domain: Ubiquitin carboxyl-terminal hydrolase 20, ZnF-UBD domain (USP20, Homo sapiens, UniProt Q9Y2K6)
# UniProt Q9Y2K6, sequence (whole entry, looked up): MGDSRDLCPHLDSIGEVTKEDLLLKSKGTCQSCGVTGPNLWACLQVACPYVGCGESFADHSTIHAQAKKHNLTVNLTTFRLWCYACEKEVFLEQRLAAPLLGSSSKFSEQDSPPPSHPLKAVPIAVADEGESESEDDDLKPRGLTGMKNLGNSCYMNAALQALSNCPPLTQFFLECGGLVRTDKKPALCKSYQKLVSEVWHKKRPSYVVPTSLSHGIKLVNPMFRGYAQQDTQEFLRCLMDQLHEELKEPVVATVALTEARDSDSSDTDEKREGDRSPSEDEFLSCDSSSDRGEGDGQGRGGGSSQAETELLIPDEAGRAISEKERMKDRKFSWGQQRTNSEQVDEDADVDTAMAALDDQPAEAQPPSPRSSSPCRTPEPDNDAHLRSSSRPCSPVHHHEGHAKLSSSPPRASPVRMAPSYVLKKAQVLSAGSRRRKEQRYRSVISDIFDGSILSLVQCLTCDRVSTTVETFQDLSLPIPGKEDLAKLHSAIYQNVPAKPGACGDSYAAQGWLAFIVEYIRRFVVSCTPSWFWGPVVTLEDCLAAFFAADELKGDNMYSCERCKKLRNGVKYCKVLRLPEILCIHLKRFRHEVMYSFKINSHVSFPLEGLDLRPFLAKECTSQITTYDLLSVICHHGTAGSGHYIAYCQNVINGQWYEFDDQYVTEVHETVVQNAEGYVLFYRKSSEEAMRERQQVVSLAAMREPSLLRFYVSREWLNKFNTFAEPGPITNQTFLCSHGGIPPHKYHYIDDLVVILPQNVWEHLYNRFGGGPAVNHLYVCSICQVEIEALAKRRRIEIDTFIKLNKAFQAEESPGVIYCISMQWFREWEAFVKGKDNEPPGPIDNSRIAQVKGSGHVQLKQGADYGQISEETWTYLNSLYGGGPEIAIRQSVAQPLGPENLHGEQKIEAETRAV
# CA1: Carbonic anhydrase 1 (CA1, Homo sapiens, UniProt P00915)
# UniProt P00915, sequence (whole entry, looked up): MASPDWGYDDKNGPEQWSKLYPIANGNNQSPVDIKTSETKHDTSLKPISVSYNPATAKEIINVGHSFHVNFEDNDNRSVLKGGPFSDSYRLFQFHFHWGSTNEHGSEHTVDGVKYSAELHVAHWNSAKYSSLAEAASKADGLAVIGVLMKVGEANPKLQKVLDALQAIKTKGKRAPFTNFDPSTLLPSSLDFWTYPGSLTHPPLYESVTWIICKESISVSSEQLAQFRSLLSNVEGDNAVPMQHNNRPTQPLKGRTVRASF
# CYP2A6: Cytochrome P450 2A6 (CYP2A6, Homo sapiens, UniProt P11509)
# UniProt P11509, sequence (whole entry, looked up): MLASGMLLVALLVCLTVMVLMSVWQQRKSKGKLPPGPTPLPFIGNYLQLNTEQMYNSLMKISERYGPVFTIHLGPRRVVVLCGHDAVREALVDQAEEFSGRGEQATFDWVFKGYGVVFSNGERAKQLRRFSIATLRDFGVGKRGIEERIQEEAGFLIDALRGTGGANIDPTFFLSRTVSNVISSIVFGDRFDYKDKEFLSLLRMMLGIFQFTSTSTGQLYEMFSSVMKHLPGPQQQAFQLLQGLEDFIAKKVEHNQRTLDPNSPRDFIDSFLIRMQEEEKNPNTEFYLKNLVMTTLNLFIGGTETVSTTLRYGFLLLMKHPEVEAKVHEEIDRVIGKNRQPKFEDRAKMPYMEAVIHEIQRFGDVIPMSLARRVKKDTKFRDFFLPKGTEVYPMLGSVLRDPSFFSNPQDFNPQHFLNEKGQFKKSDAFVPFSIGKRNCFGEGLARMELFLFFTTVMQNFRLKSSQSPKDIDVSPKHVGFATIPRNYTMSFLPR
# Ubiquitin carboxyl-terminal hydrolase 39 ZnF-UBD domain: Ubiquitin carboxyl-terminal hydrolase 39, ZnF-UBD domain (Homo sapiens, UniProt Q53GS9)
# UniProt Q53GS9, sequence (whole entry, looked up): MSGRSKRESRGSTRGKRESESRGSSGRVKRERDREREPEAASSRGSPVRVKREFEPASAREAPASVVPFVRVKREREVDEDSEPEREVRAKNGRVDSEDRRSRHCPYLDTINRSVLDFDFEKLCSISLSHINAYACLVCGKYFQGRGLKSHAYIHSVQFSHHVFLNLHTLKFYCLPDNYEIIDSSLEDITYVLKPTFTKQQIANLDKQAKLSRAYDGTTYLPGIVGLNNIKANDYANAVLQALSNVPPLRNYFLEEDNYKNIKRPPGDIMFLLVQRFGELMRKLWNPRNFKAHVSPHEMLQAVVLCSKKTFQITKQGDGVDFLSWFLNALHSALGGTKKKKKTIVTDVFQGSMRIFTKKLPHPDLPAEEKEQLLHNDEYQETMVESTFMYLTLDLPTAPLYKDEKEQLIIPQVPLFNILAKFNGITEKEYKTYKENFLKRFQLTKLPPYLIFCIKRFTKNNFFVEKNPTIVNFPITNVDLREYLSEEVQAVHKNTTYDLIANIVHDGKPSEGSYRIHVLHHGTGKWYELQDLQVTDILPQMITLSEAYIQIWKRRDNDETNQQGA
# Alpha-carbonic anhydrase: Alpha-carbonic anhydrase (Enterococcus faecium, UniProt Q3XYE8)
# UniProt Q16774, sequence (whole entry, looked up): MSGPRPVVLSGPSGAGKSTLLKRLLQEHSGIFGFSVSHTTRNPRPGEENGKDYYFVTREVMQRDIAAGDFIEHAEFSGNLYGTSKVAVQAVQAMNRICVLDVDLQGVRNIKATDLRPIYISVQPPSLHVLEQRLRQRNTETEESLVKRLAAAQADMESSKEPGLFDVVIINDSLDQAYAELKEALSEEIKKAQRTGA
# UniProt P31641, sequence (whole entry, unmodified, looked up): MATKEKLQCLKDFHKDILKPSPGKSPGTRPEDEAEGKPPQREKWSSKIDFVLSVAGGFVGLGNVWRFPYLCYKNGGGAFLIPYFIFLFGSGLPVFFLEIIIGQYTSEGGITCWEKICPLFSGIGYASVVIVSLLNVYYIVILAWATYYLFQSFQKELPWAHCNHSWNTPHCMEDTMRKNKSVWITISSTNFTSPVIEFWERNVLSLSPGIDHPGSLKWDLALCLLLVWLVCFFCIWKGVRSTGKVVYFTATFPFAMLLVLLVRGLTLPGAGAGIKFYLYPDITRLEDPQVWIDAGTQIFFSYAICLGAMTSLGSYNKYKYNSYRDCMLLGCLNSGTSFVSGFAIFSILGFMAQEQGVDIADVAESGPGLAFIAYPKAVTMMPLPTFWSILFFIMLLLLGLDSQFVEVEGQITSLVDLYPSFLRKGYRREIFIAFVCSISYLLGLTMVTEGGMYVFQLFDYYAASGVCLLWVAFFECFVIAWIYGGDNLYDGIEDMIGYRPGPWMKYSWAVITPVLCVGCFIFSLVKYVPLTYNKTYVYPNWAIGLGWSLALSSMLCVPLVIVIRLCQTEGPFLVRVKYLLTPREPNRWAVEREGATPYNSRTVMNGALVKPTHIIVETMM
# UniProt Q15208, sequence (whole entry, looked up): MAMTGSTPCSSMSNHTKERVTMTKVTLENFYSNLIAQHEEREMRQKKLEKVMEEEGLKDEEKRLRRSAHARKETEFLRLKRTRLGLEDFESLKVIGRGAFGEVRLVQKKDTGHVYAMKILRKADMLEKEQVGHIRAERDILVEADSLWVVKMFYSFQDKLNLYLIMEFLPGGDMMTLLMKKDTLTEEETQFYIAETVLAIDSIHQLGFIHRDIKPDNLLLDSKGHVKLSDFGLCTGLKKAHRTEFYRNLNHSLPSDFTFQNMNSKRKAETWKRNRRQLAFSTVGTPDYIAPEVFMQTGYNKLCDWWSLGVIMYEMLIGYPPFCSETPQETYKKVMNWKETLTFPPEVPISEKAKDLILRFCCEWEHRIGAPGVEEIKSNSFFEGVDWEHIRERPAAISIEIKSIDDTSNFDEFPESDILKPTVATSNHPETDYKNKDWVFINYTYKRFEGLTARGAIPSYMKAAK
# UniProt P30043, sequence (whole entry, looked up): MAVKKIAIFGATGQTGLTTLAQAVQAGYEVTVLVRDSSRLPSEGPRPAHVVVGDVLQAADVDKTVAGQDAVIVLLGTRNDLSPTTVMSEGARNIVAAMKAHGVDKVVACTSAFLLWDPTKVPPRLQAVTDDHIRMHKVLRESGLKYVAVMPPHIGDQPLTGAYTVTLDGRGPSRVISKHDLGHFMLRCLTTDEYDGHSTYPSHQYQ
# UniProt Q70CQ1, sequence (whole entry, looked up): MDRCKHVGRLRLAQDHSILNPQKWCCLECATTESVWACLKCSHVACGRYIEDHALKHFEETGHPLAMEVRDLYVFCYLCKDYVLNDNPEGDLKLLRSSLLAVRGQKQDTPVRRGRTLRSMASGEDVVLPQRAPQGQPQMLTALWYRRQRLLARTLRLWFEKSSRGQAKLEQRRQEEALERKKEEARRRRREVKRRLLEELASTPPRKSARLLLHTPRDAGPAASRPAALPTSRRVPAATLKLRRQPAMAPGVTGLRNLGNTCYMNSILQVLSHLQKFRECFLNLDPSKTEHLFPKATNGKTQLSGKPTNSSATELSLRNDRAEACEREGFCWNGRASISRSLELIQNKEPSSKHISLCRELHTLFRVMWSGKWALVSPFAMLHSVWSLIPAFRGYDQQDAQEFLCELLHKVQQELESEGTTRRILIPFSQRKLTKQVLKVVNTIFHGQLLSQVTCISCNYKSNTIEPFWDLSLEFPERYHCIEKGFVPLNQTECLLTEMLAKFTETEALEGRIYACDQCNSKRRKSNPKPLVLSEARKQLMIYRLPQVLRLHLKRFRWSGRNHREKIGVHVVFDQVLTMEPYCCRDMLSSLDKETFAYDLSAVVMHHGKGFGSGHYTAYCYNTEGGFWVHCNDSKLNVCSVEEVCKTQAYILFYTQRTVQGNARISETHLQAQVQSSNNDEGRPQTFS
Compound,tested on,test,system,conditions,measurement,value
CCCCC/C=C\C/C=C\CCCCCCCC(=O)O,uncharacterized protein,"binding, tyrosine fluorescence quenching",,Stern-Volmer approximation,Kd,3.6 ± 0.1 µM
Nc1ncnc2c1ncn2C1CCCO1 (stereo not drawn),Inositol-tetrakisphosphate 1-kinase,binding,,,Kd,1.8 ± 0.4 µM
O=C(O)CN1Cc2ccccc2C1=O,USP20 ZnF-UBD domain,,,,Kd,> 1000 µM
COC(=O)C[C@@H]1N=C(c2ccc(Cl)cc2)c2c(sc(C(=O)NCCOCCNC(=O)C[C@@H]3N=C(c4ccc(Cl)cc4)c4c(sc(C)c4C)-n4c(C)nnc43)c2C)-n2c(C)nnc21,"Bromodomain-containing protein 3, BD1 (BRD3, Homo sapiens, UniProt Q15059)",,,,Kd,0.00013 µM
COC1(C2=NCCN2)COc2ccccc2O1 (stereo not drawn),"alpha2-adrenoceptor, rat",saturation radioligand binding,rat cortex membranes,"pH 7.4, room temperature",Kd,0.00097 µM
NCCS(=O)(=O)O,"SLC6A6 (Homo sapiens, UniProt P31641, F58A)",microscale thermophoresis,,F58A mutant,Kd,16.8 ± 4.72 µM
Nc1nc(-c2ccc(Cl)c(S(N)(=O)=O)c2)cs1,CA1,thermal shift,,"pH 7.0, 25 °C",Kd,5 µM
c1ccc(-c2ccc(OCCn3ccnc3)cc2)cc1,CYP2A6,binding,,"20 min, pH 7.4, purified protein, 2% DMSO",Kd,21.8 µM
CCCCCCCC/C=C\CCCCCCCC(=O)O,uncharacterized protein,"binding, measured: residue L11",,25 °C,Kd,3 ± 1 µM
O=C(O)CCn1nnc(-c2ccccc2)n1,Ubiquitin carboxyl-terminal hydrolase 39 ZnF-UBD domain,,,,Kd,> 1000 µM
OC[C@@H]1CO[C@](Cn2ccnc2)(c2ccc(Cl)cc2Cl)O1 (relative stereo),CYP2A6,binding,,"20 min, pH 7.4, purified protein, 2% DMSO",Kd,83 µM
O=C(O)CNc1ncccn1,USP20 ZnF-UBD domain,,,,Kd,574 µM
C[C@H]1CCC[C@H](C(=O)Nc2nnc(S(N)(=O)=O)s2)C1 (racemic),Alpha-carbonic anhydrase,"CO2 hydration, inhibitor, stopped-flow kinetics",,,Ki,0.0421 µM
O=C(O)CCc1ccccc1OCc1ccccn1,Ubiquitin carboxyl-terminal hydrolase 39 ZnF-UBD domain,,,,Kd,> 1000 µM
Nc1ncnc2c1cnn2C1CCCCC1,Inositol-tetrakisphosphate 1-kinase,binding,,,Kd,0.36 ± 0.09 µM
Nc1nc2c(ncn2[C@@H]2O[C@H](COP(=O)(O)O)[C@@H](O)[C@H]2O)c(=O)[nH]1,"GUK1 (Homo sapiens, UniProt Q16774)",ITC,,"pH 7.5, 20 mM HEPES, with: 150 mM KCl",Kd,7.3 µM and 6.7 µM
CC(C)C[C@H](NC(=O)C[C@H](O)[C@H](CC(C)C)NC(=O)[C@H](Cc1c[nH]cn1)NC(=O)CNC(=O)[C@@H](NC(=O)[C@H](C)NC(=O)[C@H](Cc1c[nH]c2ccccc12)NC(=O)[C@H](CCC(N)=O)NC(=O)[C@@H](Cc1ccccc1)NC(=O)COCCOCCNC(=O)CCC(C(=O)O)N1CCN(CC(=O)O)CCN(CC(=O)O)CCN(CC(=O)O)CC1)C(C)C)C(N)=O (stereo partly drawn) [lutetium-177 labelled],,,"BALB/c nu/nu mice, brain","intravenous, 50 pmol, 1 h, with: PA 300 µg",tissue uptake,0.03 ± 0.01 %ID/g
O=C(O)CCC(=O)Nc1ccccc1,Ubiquitin carboxyl-terminal hydrolase 39 ZnF-UBD domain,,,,Kd,> 1000 µM
Fc1ccc(NC(=S)NCCCn2ccnc2)c(F)c1,CYP2A6,binding,,"20 min, pH 7.4, purified protein, 2% DMSO",Kd,13.7 µM
CCOc1cc(-c2nncn2C)ccc1Nc1ncc2cc(C)nc(NCC(C)(C)C)c2n1,"TTK (Homo sapiens, UniProt P33981)",,,,Kd,0.00019 µM
O=C(O)Cc1cccnc1,Ubiquitin carboxyl-terminal hydrolase 39 ZnF-UBD domain,,,,Kd,180 µM
O=C(Cn1ccnc1)c1ccc(Cl)cc1Cl,CYP2A6,binding,,"20 min, pH 7.4, purified protein, 2% DMSO",Kd,15.2 µM
C[C@H](Cc1ccccc1)Nc1ncnc2c1ncn2[C@@H]1O[C@H](CO)[C@@H](O)[C@H]1O,"adenosine A1 receptor, sheep",competition binding,striatum membranes,"high-affinity site, two-site model, with: 0.009 nM [3H]DPCPX",Kd,0.005 ± 0.002 µM
CN1CCN(c2ccc(Nc3ncc4cc(C#N)c(=O)n(C5CCCC5)c4n3)cc2)CC1,"STK24 (Homo sapiens, UniProt Q9Y6E0)",,,,IC50,0.173 µM
Cc1ccc(S(=O)(=O)OC[C@H]2CO[C@](Cn3ccnc3)(c3ccc(Cl)cc3Cl)O2)cc1,CYP2A6,binding,,"20 min, pH 7.4, purified protein, 2% DMSO",Kd,16.2 µM
CCCN1CCN(c2ccc(-c3cncc(Cl)c3N3CCC4(CCNC4=O)CC3)cc2)CC1,AXIN2 human,SILAC competition,LS174T-L5 lysate,,Kd,1.05 µM
Cn1ccnc1C(O)c1ccccc1 (stereo not drawn),CYP2A6,binding,,"20 min, pH 7.4, purified protein, 2% DMSO",Kd,1220 µM
Nc1ncnc2c1ncn2[C@@H]1O[C@H](COP(=O)(O)OP(=O)(O)NP(=O)(O)O)[C@@H](O)[C@H]1O,Inositol-tetrakisphosphate 1-kinase,binding,,,Kd,3.1 ± 0.4 µM
NS(=O)(=O)c1nnc(NC(=O)CN2CC3CCC2CC3)s1,Alpha-carbonic anhydrase,"CO2 hydration, inhibitor, stopped-flow kinetics",,,Ki,0.0366 µM
[H]/N=C(/N)NCC(=O)O,"SLC6A6 (Homo sapiens, UniProt P31641, G62A)",microscale thermophoresis,,G62A mutant,Kd,no binding
Cc1cc2nc3c(=O)[nH]c(=O)nc-3n(C[C@H](O)[C@H](O)[C@H](O)COP(=O)(O)OP(=O)(O)OC[C@H]3O[C@@H](n4cnc5c(N)ncnc54)[C@H](O)[C@@H]3O)c2cc1C,"BLVRB (Homo sapiens, UniProt P30043)","binding, NMR HSQC titration",,,Kd,~58 µM
CC[C@@H]1[C@H](F)C(=O)N[C@@H]1COc1nccc2cc(C(N)=O)c(OC)cc12,"STK38 (Homo sapiens, UniProt Q15208)","ATP-site probe binding, ActivX profiling",THP-1 cell lysate,"0.2 mM, Lys1 site",inhibition,22.6%
CCCCCCCCCCCCCCCCCC(=O)O,uncharacterized protein,"binding, tyrosine fluorescence quenching",,Stern-Volmer approximation,Kd,6.8 ± 0.1 µM
COc1cc2ncc(-c3ccccc3)nc2cc1OC,"KIT (Homo sapiens, UniProt P10721)",competition binding,,11-point threefold dilution,Kd,0.027 µM
OC(CCc1ccc(Cl)cc1)Cn1ccnc1 (stereo not drawn),CYP2A6,binding,,"20 min, pH 7.4, purified protein, 2% DMSO",Kd,90.2 µM
COc1cc(/C=C/C(=O)O)ccc1O,"Nuclear pore complex protein Nup155 (Homo sapiens, UniProt O75694)","binding, microscale thermophoresis",,"15 min, room temperature, 0.05 % Tween-20, with: 5 nM protein",Kd,0.0836 ± 0.00631 µM
NC(=O)c1cc(-n2c(CCC(=O)O)nc3ccccc32)cs1,"Ubiquitin carboxyl-terminal hydrolase 49, ZnF-UBD domain (USP49, Homo sapiens, UniProt Q70CQ1)",,,,Kd,> 1000 µM
COc1cc(CNC(=O)CCCC/C=C/C(C)C)ccc1O,NF-κB (human),,,,Kd,440 µM
OC(Cn1ccnc1)c1ccc(Cl)cc1Cl (stereo not drawn),CYP2A6,binding,,"20 min, pH 7.4, purified protein, 2% DMSO",Kd,10.6 µM
NS(=O)(=O)C(F)(F)F,CA1,"urea denaturation shift, Trp fluorescence",,"5 µM, pH 6.0",Kd,0.163 µM
O=C(O)CCC(=O)c1ccc2c(c1)CCC(=O)N2,USP20 ZnF-UBD domain,,,,Kd,821 µM
Oc1ccc(-c2nc(-c3ccc(OC4CCCC4)cc3)no2)cc1,"Germination protease CspA (Clostridioides difficile, UniProt Q185B9)",,,,Kd,> 200 µM

# Some of these lines once more:
Compound,tested on,test,system,conditions,measurement,value
OC(CCc1ccc(Cl)cc1)Cn1ccnc1 (stereo not drawn),CYP2A6,binding,,"20 min, pH 7.4, purified protein, 2% DMSO",Kd,90.2 µM
COC(=O)C[C@@H]1N=C(c2ccc(Cl)cc2)c2c(sc(C(=O)NCCOCCNC(=O)C[C@@H]3N=C(c4ccc(Cl)cc4)c4c(sc(C)c4C)-n4c(C)nnc43)c2C)-n2c(C)nnc21,"Bromodomain-containing protein 3, BD1 (BRD3, Homo sapiens, UniProt Q15059)",,,,Kd,0.00013 µM
Cn1ccnc1C(O)c1ccccc1 (stereo not drawn),CYP2A6,binding,,"20 min, pH 7.4, purified protein, 2% DMSO",Kd,1220 µM
